Assay results pooled from the literature.
Parts stem from different laboratories: compare values within a part only.

Sample 1
Target: RNA binding protein fox-1 homolog 2, RRM domain, GST-SBP tag (RBFOX2, Homo sapiens, UniProt O43251-10, residues 100-194)
Technique: RNA Bind-n-Seq
Molecule type: RNA
Matrix: in vitro
Concentration: 365 nM
Setting: natural RNA segment, single round, ends assumed
Relative to: no-protein control
Direction: higher = stronger binding
Measurement: RBNS enrichment (R)
Shared flanks, not repeated: GGGAGUUCUACAGUCCGACGAUC … UGGAAUUCUCGGGUGCCAA
Target sequence (chain): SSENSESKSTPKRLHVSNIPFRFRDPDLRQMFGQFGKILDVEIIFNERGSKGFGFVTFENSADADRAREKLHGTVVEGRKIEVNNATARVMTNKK
GUGGCUUUUCAUGUUCUCCUUUAGCCAAGGCUCCCUUUUUCCAAGUGAUGUCUUUCAGGGAAGCAGUGUUUGAAAUAGAUAGCGGGUACCUUCCCUGGAUGGAGUCAGGG: 0.402
AGGAUGAAGGCAAGACUGAUUGUUCUGAGCUGUUACCUGCCAAGGCUUUUGGAUCAUUUCGGGCCAGUAGGACCAUGGGCAGAGCUCCUUAACACUGCUGUGGUAAAUCC: 0.52
UUAUACAUACCUGGGGCAUCUUCUCAACUAGUGCGCAGGAGCACCAGGUAGAGGCAGCUGUGUGUGGAGAUGCAGUGUGUUCCUAGAGAAGGUGAACAACCUGAAAGCGC: 0.527
CCCGUUCAUGGUUGAUCUCCACGAGCAGGUGCACCAGGGACCUGUCCCUCUGUCCUACACGGUCACCACAGUGACGACCCAAGGCUUCCCCUUGCCUACAGGCCAGCACA: 0.164
CUCCUUGGCAAAGCCAUCUAGGUUCCAGGUGGGUGUCAUGCAUACCACAUGUGCACAGAGCCAGCUGCAGAGGGCACCACAAGGGCACCUUAACCAGCUCCUGAUCUCAA: 0.19
UGGCCAAAUUUGCUUCCUCUUUCCCCUGGGGCAGUUGCCUCAUAUGGGGUCAUUACAAGACCCCUUGGGGGUGCUGCUUUGCUGCCUUCAAGAAUAAAAGCCUCUAUGAU: 0.371
UGGAUGCCCCAGCGCCUGGGGUGAACAGCCAGACGCAGCAGACACGACUCCAGUGUCAGAGCAGGGCCACCUGGGGUGUGUAGGAUGGGUACAGGGUUCCCAGCCUCAGG: 0.733
UACCACCAUAGAGGAUGAAGACGCUAAAGCCCGGAAGCAGGAGAUCAUUAAGACCACGGAGCAGCUCAUCGAGGCCGUCAACAACGGUGACUUUGAGGCCUACGGGAAAA: 0.227

Sample 2
Target: Ras GTPase-activating protein-binding protein 1, C-terminal RGG region (G3BP1, Homo sapiens, UniProt Q13283)
Sequence of UniProt Q13283 (whole entry, looked up): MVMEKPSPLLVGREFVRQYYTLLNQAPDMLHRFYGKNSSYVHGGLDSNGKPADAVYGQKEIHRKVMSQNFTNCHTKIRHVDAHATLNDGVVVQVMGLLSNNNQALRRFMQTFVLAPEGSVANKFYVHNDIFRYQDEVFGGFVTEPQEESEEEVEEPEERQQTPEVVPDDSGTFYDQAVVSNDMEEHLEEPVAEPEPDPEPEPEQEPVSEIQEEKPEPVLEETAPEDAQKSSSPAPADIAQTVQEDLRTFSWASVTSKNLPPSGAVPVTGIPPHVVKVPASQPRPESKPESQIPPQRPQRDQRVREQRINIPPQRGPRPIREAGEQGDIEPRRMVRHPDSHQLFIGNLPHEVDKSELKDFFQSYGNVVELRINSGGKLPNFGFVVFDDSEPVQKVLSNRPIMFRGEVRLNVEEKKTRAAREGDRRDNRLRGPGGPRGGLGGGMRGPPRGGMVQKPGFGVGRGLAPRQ
Technique: RNA Bind-n-Seq
Molecule type: RNA
Matrix: in vitro
Concentration: 1 µM
Setting: whole 134-nt RNA, ends assumed
With: 150 mM KCl
Relative to: input library
Direction: higher = stronger binding
Measurement: log2 enrichment
Shared flanks, not repeated: GGGAGUUCUACAGUCCGACGAUC … UGGAAUUCUCGGGUGUCAAGG
UCCUGUGCUACACAUCGUAUGUACCGAAUCGGCCCCCCCGGCCCCCCCGGCCCCCCCGGAAAGUAUUAUGUUACGCCGUUCGGAUCUGCA: -1.51
CUGUGCUACACAUCGUAUGUACCGAAUCAAACCCCCCCAAAUUUUUUUAAAUUUUUUUAAAAAAGUAUUAUGUUACGCCGUUCGGAUCUG: -1.45
UCCUGUGCUACACAUCGUAUGUACCGAAUCGGGAAAAAGGGAAAAAAAGGGAAAAAGGGAAAGUAUUAUGUUACGCCGUUCGGAUCUGCA: -0.703
CACAGACAACACGCACCCACACAGACACAGAGGGAAGGGGUUGUGAUGGGGACAGGGUGCACAGCAGGGCGGGGUAGGACCCCAGCCCCU: -0.619
CCUCAAGUCCUGUGCUACACAUCGUAUGUACCGAAUCGGCGGGGCGGCGGGGAAAGUAUUAUGUUACGCCGUUCGGAUCUGCACUUCCAG: -0.818
AAGUCCUGUGCUACACAUCGUAUGUACCGAAUCGGUUUUGGGUUUUGGGUUUUGGGGAAAGUAUUAUGUUACGCCGUUCGGAUCUGCACU: -0.847
UAACUUUAGAGGACGAUCUGAUGGAUAUGGCAGUGGACGUGGAUUUGGGGAUGGCUAUAAUGGGUAUGGAGGAGGACCUGGAGGUGGCAA: 0.318
CACAGACAACACGCACCCACACAGACACAGAGGGAAGGGGUUGGGAUGGGGACAGGGUGCACAGCAGGGAAAGGUAGGACCCCAGCCCCU: -0.156
UAACUUUAGAGGAGGAUCUGAUGGAUAUGGCAGUGGACGCGGAUUUGGGGAUGGCUAUAAUGGGUAUGGAGGAGGACCUGGAGGUGGCAA: -0.937

Sample 3
Target: Interferon regulatory factor 7, full length, phosphomimetic (IRF7, Homo sapiens, UniProt Q92985, residues 1-503, S471D/S472D/S475D/S476D/S477D/S483D/S484D/S487D)
Technique: protein-binding microarray
Molecule type: double-stranded DNA, one strand shown
Matrix: in vitro
Concentration: 2200 nM top
Setting: 60-bp whole probe
With: salmon DNA 0.4 mg/ml
Relative to: random background probes
Direction: higher = stronger binding
Measurement: fitted relative affinity
Shared flanks, not repeated: GCCTAGCAC … GTCTTGATTCGCTTGACGCTGCTG
Construct (chain): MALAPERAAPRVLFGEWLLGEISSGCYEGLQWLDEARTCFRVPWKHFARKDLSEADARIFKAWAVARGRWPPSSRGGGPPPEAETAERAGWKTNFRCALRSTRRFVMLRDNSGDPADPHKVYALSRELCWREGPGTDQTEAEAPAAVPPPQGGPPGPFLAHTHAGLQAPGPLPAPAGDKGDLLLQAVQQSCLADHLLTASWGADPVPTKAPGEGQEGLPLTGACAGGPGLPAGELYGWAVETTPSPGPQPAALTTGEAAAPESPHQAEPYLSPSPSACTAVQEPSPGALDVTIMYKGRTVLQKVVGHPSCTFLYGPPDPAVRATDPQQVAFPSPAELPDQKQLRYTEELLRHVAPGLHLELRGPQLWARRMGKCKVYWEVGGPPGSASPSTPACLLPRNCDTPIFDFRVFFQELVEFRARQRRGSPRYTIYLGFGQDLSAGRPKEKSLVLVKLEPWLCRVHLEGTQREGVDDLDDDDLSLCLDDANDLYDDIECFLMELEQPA
GACGAACTGGGGACTCGAGACGTGCTA: -0.0909 z-score
TCAGTGGTCTGTTTCTGACTGTGCTAG: 1.28 z-score
TCACATGTGCCTTTATAACTGTGCTAG: 0.967 z-score
TTCATTTACATTTCCAATACGTGCTAG: 2.42 z-score
TTATATATCGGGACTGGATTAGTGCTA: 0.283 z-score
TTTCACACTGTCCAGCAGGTGTGCTAG: 5.22 z-score
TTAGGTATCCTTTTCATTTAGTGCTAG: 1.47 z-score
TGACGGCTCACTCCGTTGGAGTGCTAG: -0.597 z-score
GACGGTTTCCTTACCCTGACGTGCTAG: 1.96 z-score
CACGAACTGGGGTTTCGAGACGTGCTA: 0.886 z-score
TTCTCTCCCATTCTGAATTCGTGCTAG: 2.31 z-score
GGATGAGCAAGGGGGCCTCGGTGCTAG: -0.243 z-score
GTTTTTTTCTACTTCTCTTTGTGCTAG: 3.61 z-score
GACGGTCTCGGTTTCTGGACGTGCTAG: 2.31 z-score
TTTCTTTTCTTTTCTTTTTTGTGCTAG: 13.4 z-score
GACGGACGGGACACTGGGGACGTGCTA: -1.07 z-score
TTATGTATCGACACTGGGTTAGTGCTA: 0.623 z-score
AACATACTGATTTCCACTTTGTGCTAG: 2.19 z-score
TCATGTTTGGTCCTGATACTGTGCTAG: 1.75 z-score

Sample 4
Target: Sal-like protein 4, full length isoform A (SALL4, Homo sapiens, UniProt Q9UJQ4, residues 1-1053)
Sequence of UniProt Q9UJQ4 (whole entry, looked up): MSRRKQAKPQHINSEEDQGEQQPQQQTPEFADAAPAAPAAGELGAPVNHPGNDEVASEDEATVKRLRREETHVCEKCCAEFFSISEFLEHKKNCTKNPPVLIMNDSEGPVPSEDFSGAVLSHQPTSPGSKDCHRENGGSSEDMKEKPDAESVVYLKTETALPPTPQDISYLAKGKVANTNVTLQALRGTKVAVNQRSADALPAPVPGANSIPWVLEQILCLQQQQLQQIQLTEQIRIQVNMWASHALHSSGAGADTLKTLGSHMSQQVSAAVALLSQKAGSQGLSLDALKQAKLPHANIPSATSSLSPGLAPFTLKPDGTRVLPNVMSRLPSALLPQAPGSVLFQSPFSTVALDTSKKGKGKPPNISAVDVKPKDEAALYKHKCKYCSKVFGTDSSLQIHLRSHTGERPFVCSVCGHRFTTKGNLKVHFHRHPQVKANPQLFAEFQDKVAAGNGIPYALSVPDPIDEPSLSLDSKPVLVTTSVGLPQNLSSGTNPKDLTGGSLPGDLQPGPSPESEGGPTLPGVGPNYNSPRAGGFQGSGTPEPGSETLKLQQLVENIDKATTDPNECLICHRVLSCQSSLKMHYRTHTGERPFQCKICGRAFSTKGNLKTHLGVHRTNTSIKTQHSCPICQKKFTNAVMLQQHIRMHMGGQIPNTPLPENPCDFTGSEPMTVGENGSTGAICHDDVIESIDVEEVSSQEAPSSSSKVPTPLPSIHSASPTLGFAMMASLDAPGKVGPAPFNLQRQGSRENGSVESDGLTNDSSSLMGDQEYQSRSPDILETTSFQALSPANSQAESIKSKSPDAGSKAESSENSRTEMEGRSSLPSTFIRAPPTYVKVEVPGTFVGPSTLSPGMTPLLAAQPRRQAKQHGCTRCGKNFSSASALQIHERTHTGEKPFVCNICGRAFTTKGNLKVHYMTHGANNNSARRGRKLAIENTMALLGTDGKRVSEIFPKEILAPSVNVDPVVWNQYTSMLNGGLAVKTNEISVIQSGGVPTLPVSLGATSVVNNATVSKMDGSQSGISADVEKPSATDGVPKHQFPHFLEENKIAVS
Technique: universal PBM
Molecule type: double-stranded DNA, one strand shown
Matrix: in vitro
Concentration: 600 nM
Setting: 8-mer, flanks averaged, mean of replicates
Direction: higher = stronger binding
Measurement: E-score
TAGACCAA: 0.129
AAGTCGGT: -0.103
ACATTGGG: -0.0361
AGCTATCC: -0.24
TGCGGGAA: -0.11
GAGCTAGA: -0.033
GAATGATC: 0.17
AGACGTTA: 0.0787
AGCATCTG: -0.147
AACGGCGA: 0.0239
CGCAATCA: 0.00957
TCAGTGAA: -0.0486
CGCGCCCA: -0.338
ACCATAAA: 0.34
AGAAACCT: -0.138
GCGGCGAA: -0.226
CGACAGTA: -0.0561
CCAGTCCC: -0.262
GCACCTGC: -0.219
AGTAGCGC: -0.151
ACACGGGC: -0.305
CATGAAGA: 0.171
AACTTGAG: -0.127
CGATCAGA: -0.043
ACGCGTGC: -0.0477

A few entries again (sample 3):
GACGGACGGGACACTGGGGACGTGCTA: -1.07 z-score
TTCATTTACATTTCCAATACGTGCTAG: 2.42 z-score
GACGGTTTCCTTACCCTGACGTGCTAG: 1.96 z-score
TTATGTATCGACACTGGGTTAGTGCTA: 0.623 z-score
CACGAACTGGGGTTTCGAGACGTGCTA: 0.886 z-score
